Published values gathered from unrelated publications.
Compare with care: the assays were run in different laboratories. “And” joins repeats or separate records; there may be more than shown. ± marks the error that the study gave.

With `COc1ccccc1-c1n[nH]c2nc(NC3CCN(C(=O)Cc4ccc(F)cc4F)CC3)ncc12` the relative abundance was 1 (bead binding, competition bead pull-down, refers to: LINJ.20.0110; Leishmania donovani axenic amastigote extract; 10 µM; relative to: vehicle).
For `CC(C)C[C@@H]1NC(=O)[C@@H](Cc2c[nH]c3ccccc23)NC(=O)[C@H](CCCNC(=N)N)NC(=O)[C@@H](CCC(=O)O)NC(=O)[C@H](CCC(N)=O)NC(=O)[C@@H](CCC(=O)O)NC(=O)[C@H](CCCNC(=N)N)NC(=O)[C@@H](Cc2c[nH]c3ccccc23)NC1=O`, the cytokine level was 39 ± 25 pg/g tissue (refers to: IL5; LDLr-/- mouse on Western diet, liver; dose not given, 4 weeks).
`Cc1ccc(N2CC3CC(C2)N3C)cc1C(=O)NC1(c2ccc3c4c(cccc24)C(=O)N3C)CC1` gave an inhibition of 35.5% and 40.5% (pigeon-PLpro; enzyme activity, inhibitor; 100 µM).
`CC(C)(C)C(=O)OCOP(=O)(OCOC(=O)C(C)(C)C)C1CCCN(O)C1=O` (stereo not drawn) gave a TGI of 28.6 µM (SNB-75).
`NNC(=O)c1ccccc1` gave a normalised absorbance of 0.656 (hydrazine ligation kinetics, absorbance; concentration not given, 25 s, together with: 2-formylphenylboronic acid).
`CCOC(=O)C1(Cc2cc(OC)cc(OC)c2)Oc2cc(F)ccc2N(Cc2cc(OC)cc(OC)c2)C1=O` (stereo not drawn) has an inhibition of 45.9% (Arabidopsis thaliana; stem length, petri dish germination; Col-0, 1/2 MS medium; 200 µg/mL, 7 days, 22 °C, dark).
With `COc1ccccc1-c1n[nH]c2nc(N[C@H]3CC[C@H](NS(=O)(=O)CC(C)C)CC3)ncc12` the relative abundance was 0.69 (bead binding, competition bead pull-down, refers to: LINJ.25.1790; Leishmania donovani extract; 10 µM; relative to: vehicle).
Under “alkaline phosphatase activity”, `O=C1NC2(CC2)COc2ncc(F)cc2[C@H]2COCCN2c2ccn3ncc1c3n2` is recorded as 91.4 ± 16.2 U/L (Sprague-Dawley rat, male, serum; oral, 10 mg/kg/day, 4 weeks daily, end of recovery period).
Under “EC50 fold shift”, `Cc1cc(C(=O)Nc2nc3cccc(C)c3n2[C@H]2CCCCN(C(=O)/C=C/CN(C)C)C2)ccn1` is recorded as 1.36 fold and 0.58 fold (Trypanosoma brucei; cell growth, Alamar Blue; 2T1 overexpressing Tb927.7.3210; relative to: parental 2T1).
`Cc1cc(Oc2nc(N3CC[C@@H](c4ccncc4)C3)ncc2F)[nH]n1` gave a normalised growth of 5.66% and 9.43% (Mycobacterium tuberculosis; THP-1, H37Rv non-replicating; 0.9489 µM, day 4).
`Fc1cccc(COc2ccc(Nc3ncnc4ccc(-c5cccc(-n6cccn6)c5)cc34)cc2Cl)c1` has an EC50 of greater than 15 µM (Plasmodium falciparum; parasite growth, SYBR Green fluorescence; C235 (TM91C235), drug-resistant).
`CC(C)CC(C(=O)N1CC2(CC1C#N)C(=O)Nc1ccccc12)N(C)C(=O)c1cc2c(F)cc(F)c(F)c2[nH]1` (stereo not drawn) gave an inhibition of 100% (human coronavirus 229E; viral replication; MRC-5; 0.05 µM).

For quick reference, copied from above:
With `COc1ccccc1-c1n[nH]c2nc(NC3CCN(C(=O)Cc4ccc(F)cc4F)CC3)ncc12` the relative abundance was 1 (bead binding, competition bead pull-down, refers to: LINJ.20.0110; Leishmania donovani axenic amastigote extract; 10 µM; relative to: vehicle).
